Assay results pooled from the literature.
A part holds a random share of what one study measured. Substitutions count along the parent as printed.

Study 1 — technique: competition protein-binding microarray; form: double-stranded DNA, one strand shown; matrix: in vitro; tested at: 2 µM; together with: Cbf1 competitor, 0.05 µM; direction: higher = stronger binding
Target: Phosphate system positive regulatory protein PHO4, full length, GST-tagged (PHO4, Saccharomyces cerevisiae, UniProt P07270, residues 1-312)
Notes: whole 60-bp probe, lowest competitor level
Construct (chain): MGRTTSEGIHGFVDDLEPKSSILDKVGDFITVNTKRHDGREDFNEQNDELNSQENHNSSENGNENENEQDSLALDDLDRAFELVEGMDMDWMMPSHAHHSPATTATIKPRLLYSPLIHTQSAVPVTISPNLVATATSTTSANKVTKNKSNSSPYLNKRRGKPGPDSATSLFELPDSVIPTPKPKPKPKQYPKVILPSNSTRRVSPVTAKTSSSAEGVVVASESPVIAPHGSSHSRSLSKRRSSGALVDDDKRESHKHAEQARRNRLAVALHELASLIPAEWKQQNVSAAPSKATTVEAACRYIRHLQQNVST
Sequence | fluorescence intensity
AAAGCGGTAATTTGTTGGGTGGGTGCAGATATCTATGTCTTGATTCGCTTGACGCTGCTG | 4220 a.u.
AATGCTGAGAGTAGGCACATGGAGTAGCTTGAGTCAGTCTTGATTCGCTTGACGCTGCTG | 8840 a.u.
CATACCCAACCTTGTGGCGTGGGTGAAGATATTTGTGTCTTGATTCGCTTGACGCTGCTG | 8100 a.u.
TATTCAAGATCCTGCAACGTGCCAGGGACTCTCAATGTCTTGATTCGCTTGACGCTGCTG | 15200 a.u.
CGACACAAAAAAGAACCCGTGCAAATATTATATCCCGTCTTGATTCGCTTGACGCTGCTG | 10200 a.u.
AAAGTAGCATTCCGTTACGTGATGGGTACTTTAACCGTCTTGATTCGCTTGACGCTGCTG | 4850 a.u.
TTGAACCTTGGTCTTCACGTGGTGAAGTATTGGTACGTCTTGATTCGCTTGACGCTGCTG | 11800 a.u.
GGTTAGGTTGACCATCACGTGGAGGTCAGACATTATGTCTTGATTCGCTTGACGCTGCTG | 15200 a.u.
CTTTCCCGATCTTGTGAGGTGGGTGTAGCACATTTGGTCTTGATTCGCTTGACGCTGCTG | 4960 a.u.
TCATTAAAAACGCTTCACGTGATGGTTACTTGCATAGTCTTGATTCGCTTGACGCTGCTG | 14200 a.u.

Study 2 — technique: DHFR PCA, deep sequencing; matrix: yeast; together with: (+)-ABA 0.0091 µM; baseline: wild-type fitted maximum; direction: higher = stronger binding
Target: ABI1, truncated, D143A, DHFR fusion (Arabidopsis thaliana)
Notes: methotrexate growth selection, single substitutions
Starting sequence: PYL1, truncated, DHFR fusion (Arabidopsis thaliana); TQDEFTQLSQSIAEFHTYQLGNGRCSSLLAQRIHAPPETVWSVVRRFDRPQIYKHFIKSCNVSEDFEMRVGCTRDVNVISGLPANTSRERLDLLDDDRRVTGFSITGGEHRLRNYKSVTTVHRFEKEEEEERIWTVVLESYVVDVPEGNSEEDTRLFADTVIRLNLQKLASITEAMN
Variant | relative binding score [%]
P36E | 14.7
A175M | 11.9
G23L | 0.889
S11D | 25
Y53F | 3.4
F157Q | -0.00937
K54S | -3.59
E38F | -2.54
E89F | 8.26
T17V | -3.5
R163C | 2.35

Study 3 — technique: RNA Bind-n-Seq; form: RNA; matrix: in vitro; tested at: 1 µM; notes: whole 134-nt RNA, ends assumed; together with: 150 mM KCl; baseline: input library; direction: higher = stronger binding
Target: Ras GTPase-activating protein-binding protein 1, C-terminal RGG region (G3BP1, Homo sapiens, UniProt Q13283)
Chain of UniProt Q13283 (whole entry, looked up): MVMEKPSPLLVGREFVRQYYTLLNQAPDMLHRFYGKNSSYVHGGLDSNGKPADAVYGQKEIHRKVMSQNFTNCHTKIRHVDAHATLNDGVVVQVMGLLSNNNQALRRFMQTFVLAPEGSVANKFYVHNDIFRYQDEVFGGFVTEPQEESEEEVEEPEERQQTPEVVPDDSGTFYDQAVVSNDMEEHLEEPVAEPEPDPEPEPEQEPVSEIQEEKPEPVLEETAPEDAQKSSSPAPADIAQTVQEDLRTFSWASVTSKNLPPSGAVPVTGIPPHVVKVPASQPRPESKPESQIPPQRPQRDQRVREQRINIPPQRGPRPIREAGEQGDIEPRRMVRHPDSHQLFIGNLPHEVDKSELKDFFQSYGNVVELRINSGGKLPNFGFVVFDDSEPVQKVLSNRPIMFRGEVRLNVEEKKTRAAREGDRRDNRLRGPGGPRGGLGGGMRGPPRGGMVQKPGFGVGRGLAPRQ
Sequence | log2 enrichment
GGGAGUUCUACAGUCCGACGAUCCAAGUCCUGUGCUACACAUCGUAUGUACCGAAUCGGGUGGGAAAAAAAGGGAGGGAAAGUAUUAUGUUACGCCGUUCGGAUCUGCACUUCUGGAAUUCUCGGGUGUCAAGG | 0.971
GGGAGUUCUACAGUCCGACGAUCUGUGCUACACAUCGUAUGUACCGAAUCGGGCCCCCCCGGGGCCCCCCCGGGGCCCCCCCGGGAAAGUAUUAUGUUACGCCGUUCGGAUCUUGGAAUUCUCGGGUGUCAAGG | -2.46
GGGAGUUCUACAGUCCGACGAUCCCUCAAGUCCUGUGCUACACAUCGUAUGUACCGAAUCGGAAAGGUGGAAAGGAAAGUAUUAUGUUACGCCGUUCGGAUCUGCACUUCCAGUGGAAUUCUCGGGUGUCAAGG | -0.762
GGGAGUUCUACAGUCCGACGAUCACCAUGCAGGUGGGCAUCUUUGGGAAGUGGGGCAAGGGGGGGAUAGGGAGGGGGGUAACACUUUGGGAACAGGUGGUCCGAGGUCGUUUCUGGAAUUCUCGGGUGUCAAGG | 1.46
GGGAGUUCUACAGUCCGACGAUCCAAGUCCUGUGCUACACAUCGUAUGUACCGAAUCGGGAAAGGGAAAGGGGAAAGGGAAAGUAUUAUGUUACGCCGUUCGGAUCUGCACUUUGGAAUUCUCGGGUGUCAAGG | 1.4
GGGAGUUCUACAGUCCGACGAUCUAACUUUAGAGGAAGAUCUGAUGGAUAUGGCAGUGGACGUGGAUUUGGGGAUGGCUAUAAUGGGUAUGGAGGAGGACCUGGAGGUGGCAAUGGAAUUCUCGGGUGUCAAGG | -1.2
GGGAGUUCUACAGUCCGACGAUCCUGUGCUACACAUCGUAUGUACCGAAUCGGGCCCCCCCGGGCCCCCCCGGCCCCCCCGGGGAAAGUAUUAUGUUACGCCGUUCGGAUCUGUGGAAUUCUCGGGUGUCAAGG | -2.22
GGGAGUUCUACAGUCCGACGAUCACCAUGCAGGUGGGCAUCUUUGGGAAGUGGGGCAAGGGGGGGAUAGGGAGGGGGGUAACACUUUGGGAACAGGUGGUCCUAGGUCGUUUCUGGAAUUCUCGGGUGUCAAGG | 1.89

Mixed results
Substance | target | assay | test system | setting | scale | measurement | result
PhoQ, residues 284 288 289 292 302 303 TVTVVA | PhoP, residues 12 14 15 18 19 LYFRQ (Escherichia coli, UniProt P23836) | Sort-seq, measured: YFP reporter | E. coli | PhoQ-PhoP variant library, together with: 10 µM Mg2+ | baseline: high Mg2+ state, higher = stronger signaling | fold induction | 9.14

Repeated from above (study 3):
Sequence | log2 enrichment
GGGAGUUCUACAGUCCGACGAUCACCAUGCAGGUGGGCAUCUUUGGGAAGUGGGGCAAGGGGGGGAUAGGGAGGGGGGUAACACUUUGGGAACAGGUGGUCCUAGGUCGUUUCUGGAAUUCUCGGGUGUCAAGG | 1.89
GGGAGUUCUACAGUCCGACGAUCCAAGUCCUGUGCUACACAUCGUAUGUACCGAAUCGGGAAAGGGAAAGGGGAAAGGGAAAGUAUUAUGUUACGCCGUUCGGAUCUGCACUUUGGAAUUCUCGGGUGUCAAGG | 1.4
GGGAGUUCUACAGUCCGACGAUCCUGUGCUACACAUCGUAUGUACCGAAUCGGGCCCCCCCGGGCCCCCCCGGCCCCCCCGGGGAAAGUAUUAUGUUACGCCGUUCGGAUCUGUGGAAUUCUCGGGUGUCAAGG | -2.22
